Experimental data collected from several papers.
Numbered parts are unrelated; each lists some results of a single study.

Study 1
Target: RING finger protein unkempt homolog, zinc fingers 1-6, GST-SBP tag (UNK, Homo sapiens, UniProt Q9C0B0, residues 30-357)
Method: RNA Bind-n-Seq
Molecule type: RNA
Matrix: in vitro
Concentration: not given
Notes: RNA with constant flanks, ends assumed
Relative to: input RNA pool
Direction: higher = stronger binding
Shared flanks, not repeated: GGGAGUUCUACAGUCCGACGAUC … CAACAGAGGAUUGAGCAUCA
Construct (chain): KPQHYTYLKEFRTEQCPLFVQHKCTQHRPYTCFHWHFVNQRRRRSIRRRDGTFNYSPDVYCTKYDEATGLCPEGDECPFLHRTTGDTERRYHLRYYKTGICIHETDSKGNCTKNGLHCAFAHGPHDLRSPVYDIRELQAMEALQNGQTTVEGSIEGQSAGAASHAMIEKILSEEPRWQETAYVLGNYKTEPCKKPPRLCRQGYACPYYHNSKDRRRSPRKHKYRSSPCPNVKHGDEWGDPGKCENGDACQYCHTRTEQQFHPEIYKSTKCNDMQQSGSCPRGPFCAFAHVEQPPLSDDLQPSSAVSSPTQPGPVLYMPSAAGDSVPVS
`GAGCCAAGUCGGCAGUUUGUAAAGGACUCCAUUCGGCUGGUUAAAAGAUGCACUAAACCUGACCGAAAAGAAUUCCAGAAGAUUGCCAUGGCAACAGCAAUAGGAUUUGCUAUAAUGGGA` gave a bound/input enrichment of 0.199 ratio.
`CAUUAAUUUUAAAUUAAGUAAACUAAAUAAAUAAAAAUAAACUUUUUUAAAGAUGUGUGGUUCCGGAUGGGCUUUAAGAAAGUGAGUCUACCAAAUGCCAGUUAAAGAGCAAGUUAGGGG` has a bound/input enrichment of 1.52 ratio.
`UGCCGGCUCUGUUUUUCUGUAAAUAAAUUUGCAUAUUUUGUAGGACUUUUAAUUGUAAUGACCGAGAAAAAAACAAGGAAAACUAUUUAAUGAAAGCACGAUAUUUAUCUUUGGUAAAUG` has a bound/input enrichment of 0.269 ratio.
The bound/input enrichment of `CCUGGAUGGAACGAGGCAGCAUCACAGUAAACCUUUGGGGACCAUGUAGCCAGCUGGCAUCCCCGGGAACUCCUUCCCAUAGCCCGACUGCUGUCACAGCUAAGCUUCUCACAGGACUGU` is reported as 0.341 ratio.
With `GAGUCUGACUCUUAACCCUUUUGAGAAUUGCUCUGAAUUUUGUUCUCAGGCAUUAUACAGUCCGUAAUUAAACUUUAAAUGCCAUUACUACUUGUUUUUUCAUAUCCCAAGAAUAAGAAC` the bound/input enrichment was 0.145 ratio.
For `GCAUCCUGUGAAAAUACUCUUAAUACGUUAAGAUAUGCAAAUAGAGUAAAGGAGUUUGGAAUCCGUCCUUCAGACAUUCCCUUCUCCCAGGGUGGUGGCAGUCGCCCUGAUCUCUCUCCU`, the bound/input enrichment was 0.114 ratio.
With `GAGACGACAAAAAGCUGUUUUUCCUUUUGUGACUCCAGAGCUGGAAAGCCUUCCCAGCUCCACCGUGUCUGUACCUGUCUUGUGCUUUGGGGUGUCCUUCAUGUGGCCAUUCUGCCUGCA` the bound/input enrichment was 0.0968 ratio.
With `UGUCCAGGUUGCUACAAGAUCACCACGGUUUUCAGCCAUGCUCAGACAGUGGUUCUUUGUGCCGGUUGUUCAACAGUGUUGUGCCAGCCUACAGGAGGAAAGGCCAGACUCACAGAAGGG` the bound/input enrichment was 0.141 ratio.
With `GAGUCAUGCAACGGUUCACACCAGGCAAGGGGGGAUCCACUCAGUGGAGCAUCUGACCGGAUGAAAGAAGCAUCAGUCAACCCAUCGGGAGCCCGAGAAGAACAAGAGGCUCACACUGAC` the bound/input enrichment was 0.0678 ratio.
The bound/input enrichment of `CUAGUUUGUGUUUGUUUUUAAGAUUAAAUUAAUCCUUGAUAAAAGUUGCUUUUUUAGGGGUCCGUCUUUGACCACUAUAGUUUGAUGCCAUCUCCAUUUUGGUUGACCUGUCUCACCAUC` is reported as 11.5 ratio.
`ACCUGAGAAUGAUGCUAAGAAAAUUGAAGCACUGCUAAACCUUCCUAGAAACCCUUCAGUAACCGAUAAACAAGACAAGGACUGAAAGUGCUCUGAACUUGAAACUCACUGGAGAGCUGA` gave a bound/input enrichment of 0.237 ratio.

Study 2
Target: Interferon regulatory factor 5, full length, phosphomimetic (IRF5, Homo sapiens, UniProt Q13568-2, residues 1-514, K96S/S451D/S453D/S456D/S462D)
Method: protein-binding microarray
Molecule type: double-stranded DNA, one strand shown
Matrix: in vitro
Concentration: 250 nM
Notes: 60-bp whole probe
With: salmon DNA 0.4 mg/ml
Relative to: random background probes
Direction: higher = stronger binding
Shared flanks, not repeated: GCCTAGCAC … GTCTTGATTCGCTTGACGCTGCTG
The log fluorescence of `TTAGGACTGGGACTGGGTGAGTGCTAG` is reported as -0.685 z-score.
`TTAGGACTGCTTCTCCTTGAGTGCTAG` gave a log fluorescence of -0.332 z-score.
`TTAGGTTTCGACACTAGGTTAGTGCTA` gave a log fluorescence of 6.01 z-score.
With `GACGTTTTCGGGTTTCGAGACGTGCTA` the log fluorescence was 6.48 z-score.
For `GACGGTCTCGGTTTCGGTACGTGCTAG`, the log fluorescence was 7.21 z-score.
`TTAGGTCTCGGAGTGGGTTAGTGCTAG` has a log fluorescence of -0.148 z-score.
`ATGCATGTAAATAATCAGACAGTGCTA` has a log fluorescence of 0.417 z-score.
For `TTAGATATCAGCATCGATTAGTGCTAG`, the log fluorescence was 1.22 z-score.
`TCAACTCTGGAGGTTGAGACTGTGCTA` gave a log fluorescence of -0.303 z-score.
The log fluorescence of `TTAGGTTTCTACACTGGGTTAGTGCTA` is reported as 1.24 z-score.
For `TTCTTTTTTTCTTTTATTAGGTGCTAG`, the log fluorescence was 1.91 z-score.
`TCACTTATTAAGATTGTGACTGTGCTA` has a log fluorescence of 0.598 z-score.
The log fluorescence of `AACGGTATCGACTATCGGGACGTGCTA` is reported as 4.27 z-score.
With `TTAGGACTGGGTCTCGGGTAGTGCTAG` the log fluorescence was -0.632 z-score.
For `GACGGTTTCGGGACTGGGGAAGTGCTA`, the log fluorescence was 4.9 z-score.
For `GACCGTCTCGGTATCGGGACGTGCTAG`, the log fluorescence was 0.98 z-score.
For `TCACCTTCCTCTTTTACACTGTGCTAG`, the log fluorescence was 0.609 z-score.
The log fluorescence of `TTAGAACTGGGGCATCGATTAGTGCTA` is reported as 0.0596 z-score.
The log fluorescence of `TTAGAACTGGGGTTACGATTAGTGCTA` is reported as -0.266 z-score.
`GACGATATTAGTCTCGAGACGTGCTAG` has a log fluorescence of 0.788 z-score.
The log fluorescence of `GACGGATCCCTTTTCCTGACGTGCTAG` is reported as 0.000465 z-score.
`GACGAACTGGGGTTTCGAGTCGTGCTA` gave a log fluorescence of 1.54 z-score.
With `GACGGACGGGGTCTCGGGACGTGCTAG` the log fluorescence was -0.562 z-score.
With `CCCATTCTGAATTCGAATGCGTGCTAG` the log fluorescence was 0.0872 z-score.
`TTAGGTATCGCTATCGGTTAGTGCTAG` gave a log fluorescence of 8.26 z-score.

Study 3
Target: Histone acetyltransferase KAT6A, winged helix 2, GST fusion (KAT6A, Homo sapiens, UniProt Q92794, residues 85-181)
Method: protein binding microarray
Molecule type: double-stranded DNA, one strand shown
Matrix: in vitro
Concentration: not given
Notes: 8-mer, flanks averaged, mean of 2 arrays, mostly near background
Relative to: not given
Direction: higher = stronger binding
Construct (chain): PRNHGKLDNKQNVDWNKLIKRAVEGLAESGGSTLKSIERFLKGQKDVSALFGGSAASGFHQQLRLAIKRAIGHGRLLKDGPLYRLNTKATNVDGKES
`ACGACAAA` gave an E-score of 0.177.
For `ACTAATTG`, the E-score was -0.0214.
For `TAGATCTA`, the E-score was -0.0135.
`TCCAGCAA` gave an E-score of 0.0578.
For `CAGCTAGC`, the E-score was -0.178.
The E-score of `CTTTGTTA` is reported as 0.0659.
With `ACAGGAGA` the E-score was -0.0505.
`CCCGGACC` has an E-score of 0.0817.
`AGGATAAT` gave an E-score of 0.0562.
With `AACCCGTT` the E-score was -0.149.
With `GTACGATA` the E-score was -0.101.
`ATGTACTG` has an E-score of -0.115.
With `AAAGTCTA` the E-score was -0.225.
The E-score of `CTCCGGAC` is reported as -0.0277.
For `TACCGTGA`, the E-score was -0.123.
`CCATGATA` has an E-score of 0.0118.

Study 4
Target: RNA binding protein fox-1 homolog 2, RRM domain, GST-SBP tag (RBFOX2, Homo sapiens, UniProt O43251-10, residues 100-194)
Method: RNA Bind-n-Seq
Molecule type: RNA
Matrix: in vitro
Concentration: 365 nM
Notes: natural RNA segment, single round, ends assumed
Relative to: no-protein control
Direction: higher = stronger binding
Shared flanks, not repeated: GGGAGUUCUACAGUCCGACGAUC … UGGAAUUCUCGGGUGCCAA
Residues (chain): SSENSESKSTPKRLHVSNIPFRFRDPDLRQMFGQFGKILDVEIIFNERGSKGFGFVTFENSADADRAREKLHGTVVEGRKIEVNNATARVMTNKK
For `GGAGGGAGCUCUCAGGCUGCAGAGACAGUCAAGUAGAAGAGGAAGAGCUAAGGGGUGUGGAGUCCUGCUCCUCCAUUUGUCCUGAUCAUUUCAACACCUGGCCCUUGCUC`, “RBNS enrichment (R)” read 0.683.
`CUGGUGGUUCUUCUGUUCUCAAGCCUUUCAGGUGAGGACACAUGGCCUGGUGAUGCAGCUGGCUGGACCAGGCUCCCCCACAGCCUACUCCCAAGGGCUGGCUGCUUCUG` — result for “RBNS enrichment (R)”: 0.355.
For `CAGCCUGCUGGCUCCAGAAAAAAGGUCUUGGUAGGCAUUAGUCUAUCCUAGGUGCCCCCAGUGCACUGUCCUUGUCUGUCUGAAGCACCCAUCUCUACCUUCCCUGGCCA`, “RBNS enrichment (R)” read 0.35.
Under “RBNS enrichment (R)”, `CGCCCAAAGCGAACAUCACGUCCGAUGAGCUUGAGGACCUUCGGCUGUGCCAUACUGAGGGGUGGUUGUGUUUGCAGGAGGUAGCCACUCUAGAGGCCGCGGCAGAAGGA` is recorded as 0.956.
Under “RBNS enrichment (R)”, `AAAUCUCUUAAACUCUCUUCUUCCAUUAGAAUGCUACAAGUAACUCAGUGAAGGCCCAUGAAGGAAAUUGGGACUAGUUUAUAGGAGAACGUAUCAAUACAGUUUAUAAA` is recorded as 0.965.
`GUCAGUAAUGAACUGGCUGCAAGGGGACAGCACCUCUCAGCCUGCACAGCAGCUUGUCAGAGUGAGAACUGUCCUGGGGCCAGAGACUAACAUGCCCAGGUGGUGUCGGC`: “RBNS enrichment (R)” 0.749.
`UGUGCAAAAGGUGGGAGACAGAGCUGGACCUGCAGGGGUGGUCCCGCCACAACCCUGCGUGUGGACCCUGGCAGGGGGGGGUGCCAGGCCCCUGGAAAGCAGGGGUUACC` — result for “RBNS enrichment (R)”: 0.622.
Under “RBNS enrichment (R)”, `UGUUCUUCCGUUUGCUGCAACGAUGUCCUUGGAAAAAGAUAGAAUGGAAAUUAUUUUUCCAAAAUAAAGGAGAUAAAGUGCCAUCCCAAAACACACAGAUAUUAUUAGAG` is recorded as 1.64.
`UCUGACCUGACCUCCAUAUCUUCUCUUGCCAGCCUUUCCCUAUGCUCCCUCAAAUAUGUAUCUGAUGAGAUUCUUUAAUUCCCAACUCCAUGUGUGUGCGAGCACGCGUG` — result for “RBNS enrichment (R)”: 0.778.
Under “RBNS enrichment (R)”, `CUGCGCUUUGAUGGGGAGGAGGGCAGGUCCCUGUGCAGCCAGGGUUCUUGCUCCUUCCAUGGCAGGAUGAGAAGGAAGGCCUAAGAGGCUGGCCAGGGGCCUGGUGUAGA` is recorded as 0.835.
Under “RBNS enrichment (R)”, `GCUCAGGUGAUGCCGGCCACCAGCAAUGCCUGGCCUGGUAGCUCCGCUUCUGCUUUCACCAAGAGAGUGUUUCUUCACUCAACUCAGGUGGCAUUUGGGGUGACAUCUCA` is recorded as 0.183.
For `UAAAAGUAGCUGCCCUCUUUGAUCCUUUCUUACUAGGCUUCAUGUGGGAUGGGAGAGGAUGUCCCCAGGAUGGGGACAGAGGAAGCCCUGCUAGGGUCUCCUAGCCCAGU`, “RBNS enrichment (R)” read 0.381.
